Measurements collected from several papers.
Parts stem from different laboratories: compare values within a part only.

Series 1
Target: Histone acetyltransferase KAT6A, winged helix 2, GST fusion (KAT6A, Homo sapiens, UniProt Q92794, residues 85-181)
Technique: protein binding microarray
Form: double-stranded DNA, one strand shown
Medium: in vitro
Tested at: not given
Notes: 8-mer, flanks averaged, mean of 2 arrays, mostly near background
Reference: not given
Direction: higher = stronger binding
Endpoint: E-score
Construct (chain): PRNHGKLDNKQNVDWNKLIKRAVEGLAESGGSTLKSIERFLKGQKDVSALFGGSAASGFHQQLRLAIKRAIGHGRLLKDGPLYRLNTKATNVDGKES
AAAGGTCG: -0.159
ATACCGCC: 0.145
AGACGTTC: -0.181
CTCACGAG: 0.0885
CGGCGAGC: 0.226
TAGCACTA: -0.0567
ATAAAACC: -0.019
AGTCCAGA: 0.0163
CGATTGCG: 0.0645
CAGCTAGC: -0.178
ATAAACAA: 0.137
ATCTTCGA: -0.0175
GGACGCTA: -0.0424
AAGGTAGA: -0.125
ACTTAGGC: -0.0231
CCAGTTAC: -0.248
AAGATCGC: 0.0858
CCAAAGCA: 0.149
ACTGACTC: -0.179
ATTGATAG: 0.0794
CGTGGAGA: 0.0642
CGTCAAAG: 0.0219

Series 2
Target: Signal transducer and activator of transcription 1-alpha/beta, full length (STAT1, Homo sapiens, UniProt P42224, residues 1-750)
Chain of UniProt P42224 (whole entry, looked up): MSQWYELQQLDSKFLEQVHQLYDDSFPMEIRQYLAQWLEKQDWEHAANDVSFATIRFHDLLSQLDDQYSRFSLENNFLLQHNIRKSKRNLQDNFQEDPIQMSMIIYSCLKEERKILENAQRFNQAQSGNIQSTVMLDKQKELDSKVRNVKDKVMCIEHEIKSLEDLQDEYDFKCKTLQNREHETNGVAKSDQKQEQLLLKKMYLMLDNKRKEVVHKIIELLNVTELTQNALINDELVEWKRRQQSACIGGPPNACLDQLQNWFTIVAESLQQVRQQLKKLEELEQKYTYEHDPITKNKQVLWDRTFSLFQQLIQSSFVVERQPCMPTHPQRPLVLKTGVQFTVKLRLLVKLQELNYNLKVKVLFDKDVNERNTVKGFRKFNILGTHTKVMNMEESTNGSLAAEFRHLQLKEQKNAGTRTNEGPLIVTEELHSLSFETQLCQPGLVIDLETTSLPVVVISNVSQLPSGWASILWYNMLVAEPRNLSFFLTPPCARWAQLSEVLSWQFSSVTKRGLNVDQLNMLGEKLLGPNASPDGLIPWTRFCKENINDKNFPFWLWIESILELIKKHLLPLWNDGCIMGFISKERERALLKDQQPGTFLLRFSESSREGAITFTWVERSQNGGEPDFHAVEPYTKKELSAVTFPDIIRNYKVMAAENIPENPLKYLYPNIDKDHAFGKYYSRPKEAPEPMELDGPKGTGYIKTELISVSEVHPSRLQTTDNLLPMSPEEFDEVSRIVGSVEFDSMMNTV
Technique: protein-binding microarray
Form: hairpin DNA
Medium: in vitro
Tested at: not given
Notes: whole hairpin DNA, median over replicate spots
Reference: not given
Direction: higher = stronger binding
Endpoint: median fluorescence
All sequences stand within: GAGGCC … GGCCTCACACTCTTTCCCTACACG
TCCCCCGGAAGCCTCCTGGCTTCCGGGGGA: 935 a.u.
TTTCGCGGAAGCCTCCTGGCTTCCGCGAAA (5mC at 10): 3030 a.u.
TTTCCCGCTAGCCTCCTGGCTAGCGGGAAA: 990 a.u.
TTTCCCGCGAGCCTCCTGGCTCGCGGGAAA (5mC at 14 28): 1010 a.u.
TTTCCCGGATGCCTCCTGGCATCCGGGAAA: 1490 a.u.
TTTACCGGAAGCCTCCTGGCTTCCGGTAAA: 4400 a.u.
TTTCTCGGAAGCCTCCTGGCTTCCGAGAAA (5mC at 10): 3760 a.u.
TTCTCCGGAAGCCTCCTGGCTTCCGGAGAA: 1060 a.u.
TTTCCGGGAAGCCTCCTGGCTTCCCGGAAA (5mC at 11): 11100 a.u.
CGTCCCGGAAGCCTCCTGGCTTCCGGGACG (5mC at 7): 1340 a.u.
TCGCCCGGAAGCCTCCTGGCTTCCGGGCGA (5mC at 8): 1390 a.u.
TTTCCCGGAGGCCTCCTGGCCTCCGGGAAA: 1440 a.u.

Series 3
Target: PABPC1L2, full length, GST fusion (mouse, UniProt A0ABA7IW68)
Technique: RNAcompete
Form: RNA
Medium: in vitro
Tested at: 20 nM
Notes: 7-mer, probes averaged, single round
Reference: mean of 7-mers
Direction: higher = stronger binding
Endpoint: 7-mer Z-score
Target sequence (chain): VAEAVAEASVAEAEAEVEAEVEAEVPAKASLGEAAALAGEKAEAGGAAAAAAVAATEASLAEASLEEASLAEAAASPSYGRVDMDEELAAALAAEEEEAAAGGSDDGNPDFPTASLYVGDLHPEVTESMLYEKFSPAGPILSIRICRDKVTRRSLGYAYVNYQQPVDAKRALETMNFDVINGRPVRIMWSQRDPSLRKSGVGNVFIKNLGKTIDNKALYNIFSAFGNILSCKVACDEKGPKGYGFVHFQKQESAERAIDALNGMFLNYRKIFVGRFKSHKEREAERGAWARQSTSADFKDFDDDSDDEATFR
UGCGCAA: 0.314
GAGAAGG: 0.12
AGCUGCG: -0.193
AGACAAC: 0.129
UAUCUUC: -0.287
AAGGCGG: 0.341
CGGGGCG: -0.0174
UUGCAGU: -0.244
ACGGUGC: 0.148
AACCGCC: -0.229
ACUUUCA: -0.108
UUAGAAG: 0.0388
AGCCGCC: -0.36
GGACUGU: 0.0243
CCGGAGU: -0.0228
UGCGUUC: -0.345

Series 4
Target: RNA binding protein fox-1 homolog 2, RRM domain, GST-SBP tag (RBFOX2, Homo sapiens, UniProt O43251-10, residues 100-194)
Technique: RNA Bind-n-Seq
Form: RNA
Medium: in vitro
Tested at: 365 nM
Notes: natural RNA segment, single round, ends assumed
Reference: no-protein control
Direction: higher = stronger binding
Endpoint: RBNS enrichment (R)
Target sequence (chain): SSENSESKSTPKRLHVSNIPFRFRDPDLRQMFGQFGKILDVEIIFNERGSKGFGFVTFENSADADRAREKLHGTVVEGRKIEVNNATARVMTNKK
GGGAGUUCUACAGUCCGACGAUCUCAGGGUUGAACAUGUCCUGCUCCUCAUCCCAUAAGUACCUUGGACUUUCAGGAGCCUCAGGAUCAGUCCUCUAGCAUUUCCUUCACCUUUCUCAUGUACAGGGGCAGCGUGGAAUUCUCGGGUGCCAA: 0.362
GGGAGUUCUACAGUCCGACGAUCCUUGUCUCUGCUCUUAUGAAACUUGCUUAUUCUUGAAAACCUUCUGCAUUUCCAUUUUUUCCUCUCUUCCAAUUUAUUCUCCAUGUAACAGAGUAGUUUGGUUUUUAAAAUGGAAUUCUCGGGUGCCAA: 0.564
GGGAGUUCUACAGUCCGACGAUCUAUUUUGGUUGUCUGUAGCGUUGGAAGCAUUUUAUAUGAUAAAAAUAGCAAGAAAAAAUUAAAAAGUGUCAACGGUGUGCUGGUUCUAAAUUAAGAAGAUAGAACAAAGAUGGAAUUCUCGGGUGCCAA: 1.24
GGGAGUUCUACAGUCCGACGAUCUUAAUCUGCUAUGAAUCAGUACCCAGAUGUUUAAUUACUGUACUUAUUAAAUCAUGAGGGCAAAAGAGUGUAGAAUGGAAAAAAGUCUCUUGUAUCUAGAUACUUUAAAUUGGAAUUCUCGGGUGCCAA: 0.37
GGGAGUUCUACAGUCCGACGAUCAAAGUCUCACCCCUUUGUCUACGUUGCUUCCCCAAACCAUGAGCAGAGGGACUUCGAUGCCAAACCAGACUCGGGUCCCCUCCUGCUUCCCUUCCCCACUUAUCCCCCAAUGGAAUUCUCGGGUGCCAA: 0.376
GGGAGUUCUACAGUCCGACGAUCGAAGGACAGGGAGACAGCAACCAUCGCCUGACCACGCCGACCACAGGGCCUUGAAUCCUUUUUUGUUUUCAACAGUCUUGCUGAAUUAAGCAGAAAGGGCCUUGAAUCCUUGGAAUUCUCGGGUGCCAA: 0.373
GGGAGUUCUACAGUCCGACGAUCUCAUAACUAGACUUGAGUGGGCUGAAUAAACCACUUCACUAACUUGAAGUUCAAAAGGAUGGAAAAUGUCUUGGUUUGAUCUGUGGACUGCUGCUUUUCUGAUCGUUAUUUGGAAUUCUCGGGUGCCAA: 0.688
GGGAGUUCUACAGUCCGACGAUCCUCAGAACCUGACAGGUAUGUUCAAAACUGUCAGUCUGUUUGUGCCUUAAAAGGGUGAGAAGGGCGCGUAGAUAGUUACAGAGUCUCAGCUGCUGACGUUCUGAGCCAGGUGGAAUUCUCGGGUGCCAA: 0.854
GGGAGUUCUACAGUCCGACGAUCAAAUGUGGAAACUGUGUAUCUUAUAGAGCCUCCUCUCGUCCUACUCAUCCCUCAGCAGAAAAAUGUGGGCCUAAAAUGAGUUGUGUCACUCAGCAAACAUUUCCUGAGUAUGGAAUUCUCGGGUGCCAA: 0.25
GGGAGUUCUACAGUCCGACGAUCUUUGGAGAGCUGUUUUAUCUCCAAUGGCUGUGACUCAGUGCAAGGAUUCCACUCAGAACCUCUUUCUAAAGUUUUUGCCUGAUGUGUCUUCACUGGAUUUUGGGGUUCCCUGGAAUUCUCGGGUGCCAA: 0.768
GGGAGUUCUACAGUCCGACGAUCUACUGUGUCCUAUUUUAUUCAUGCCUGUGUGUUUUUCUUAAGUAUGAAUUCUAGAUACAGCUACUUAUGGAUUCAUCAAUAUCAUGAGCACUUUUGCUGGUUCCAGUCAAUGGAAUUCUCGGGUGCCAA: 0.453
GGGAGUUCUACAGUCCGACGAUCUCAGUUCAGUUUCAGCGGUGCCAACCUCUUUGCGUUUCCUUUUUGUUGAUGAGGACCCAGAGCUGCUGCACACACUCACCUCUAACCCCCUCCCCUCGCUGCUGGGCCCCUGGAAUUCUCGGGUGCCAA: 0.648

Series 5
Target: Interferon regulatory factor 7, full length, phosphomimetic (IRF7, Homo sapiens, UniProt Q92985, residues 1-503, S471D/S472D/S475D/S476D/S477D/S483D/S484D/S487D)
Technique: protein-binding microarray
Form: double-stranded DNA, one strand shown
Medium: in vitro
Tested at: 2200 nM top
Notes: 60-bp whole probe
Together with: salmon DNA 0.4 mg/ml
Reference: random background probes
Direction: higher = stronger binding
Endpoint: fitted relative affinity
All sequences stand within: GCCTAGCAC … GTCTTGATTCGCTTGACGCTGCTG
Residues (chain): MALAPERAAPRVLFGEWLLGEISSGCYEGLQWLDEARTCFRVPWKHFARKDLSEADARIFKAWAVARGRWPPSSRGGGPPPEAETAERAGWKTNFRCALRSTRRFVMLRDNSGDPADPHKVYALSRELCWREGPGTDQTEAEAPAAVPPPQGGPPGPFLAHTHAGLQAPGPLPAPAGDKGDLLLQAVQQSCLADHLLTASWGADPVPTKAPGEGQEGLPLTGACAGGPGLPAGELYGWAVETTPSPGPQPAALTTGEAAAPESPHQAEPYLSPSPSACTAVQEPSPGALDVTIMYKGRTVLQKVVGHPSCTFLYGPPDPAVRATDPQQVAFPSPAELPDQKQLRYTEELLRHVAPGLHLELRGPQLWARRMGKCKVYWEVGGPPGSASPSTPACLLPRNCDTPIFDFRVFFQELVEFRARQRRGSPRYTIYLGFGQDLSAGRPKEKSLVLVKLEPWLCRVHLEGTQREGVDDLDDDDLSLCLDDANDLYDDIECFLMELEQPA
TTAGGTCTCGGACTTGGTTAGTGCTAG: -0.052 z-score
CTTTCTTTAACATATTCTCTTGTGCTA: 1.54 z-score
TCATCTCTCTTTCCACTACTGTGCTAG: 2.67 z-score
TTAGGTCTCGGTCCCGGTTAGTGCTAG: 0.181 z-score
ATGATGTGTCAAAAATTGCAGTGCTAG: -0.227 z-score
TTAGGTTACGACACTGGGTTAGTGCTA: -0.17 z-score
ATAGAACTGAGACTGGATTAGTGCTAG: -0.447 z-score
TTAGATTTCAGTCTCGACTAGTGCTAG: 0.531 z-score
TTAGGTTCCCTTTTCCTTAAGTGCTAG: 2.75 z-score
TTAGGTCTCCTCTTCCTTTAGTGCTAG: 1.16 z-score
GACGGTATCCTTACCCTGACGTGCTAG: 0.649 z-score
TTAGGTCGCCTTCTCCTTTAGTGCTAG: 0.82 z-score
GACGGTCTCCTACTGCTGTCGTGCTAG: 0.914 z-score
GGGAATTTAGAAAATGGAAATGTGCTA: -1.09 z-score
AACGGTTTCCTTCTCCTGACGTGCTAG: 2.92 z-score
GACGGTAACCTTTTCCTGACGTGCTAG: 0.706 z-score
TTAGGTTTCGGTATCCGTTAGTGCTAG: 8.29 z-score
TTAGAACTGGGGTTTCGTTTAGTGCTA: 2.92 z-score
GACGGACTGTGTCTCGGGACGTGCTAG: -0.431 z-score
TTAGGTTTCCTTCTCCTCTAGTGCTAG: 2.62 z-score
TTAGGTATCCATATCCTTTAGTGCTAG: 0.791 z-score
TTAAAACTGGGGACTGGATTAGTGCTA: -0.486 z-score
TTAGATTTCGGGTTTCGATCAGTGCTA: 4.85 z-score
TCATTTCTACTGTCTGTTACTGTGCTA: 2.13 z-score
TTAGGTTTCGGGACTAGGTTAGTGCTA: 3.29 z-score

Repeated from above (series 5):
TTAGATTTCAGTCTCGACTAGTGCTAG: 0.531 z-score
TTAGGTTCCCTTTTCCTTAAGTGCTAG: 2.75 z-score
TTAGGTCTCCTCTTCCTTTAGTGCTAG: 1.16 z-score
GACGGTATCCTTACCCTGACGTGCTAG: 0.649 z-score
TTAGGTCGCCTTCTCCTTTAGTGCTAG: 0.82 z-score
GACGGTCTCCTACTGCTGTCGTGCTAG: 0.914 z-score
GGGAATTTAGAAAATGGAAATGTGCTA: -1.09 z-score
AACGGTTTCCTTCTCCTGACGTGCTAG: 2.92 z-score
GACGGTAACCTTTTCCTGACGTGCTAG: 0.706 z-score
TTAGGTTTCGGTATCCGTTAGTGCTAG: 8.29 z-score
TTAGAACTGGGGTTTCGTTTAGTGCTA: 2.92 z-score
GACGGACTGTGTCTCGGGACGTGCTAG: -0.431 z-score
